Measured values collected from several papers.
Each line is one published result; not all experiments were run side by side. Numbers after ± are the reported error.
MCA2: Metacaspase-2 (MCA2, Trypanosoma brucei brucei, UniProt Q585F3)
Chain of UniProt Q585F3 (whole entry, looked up): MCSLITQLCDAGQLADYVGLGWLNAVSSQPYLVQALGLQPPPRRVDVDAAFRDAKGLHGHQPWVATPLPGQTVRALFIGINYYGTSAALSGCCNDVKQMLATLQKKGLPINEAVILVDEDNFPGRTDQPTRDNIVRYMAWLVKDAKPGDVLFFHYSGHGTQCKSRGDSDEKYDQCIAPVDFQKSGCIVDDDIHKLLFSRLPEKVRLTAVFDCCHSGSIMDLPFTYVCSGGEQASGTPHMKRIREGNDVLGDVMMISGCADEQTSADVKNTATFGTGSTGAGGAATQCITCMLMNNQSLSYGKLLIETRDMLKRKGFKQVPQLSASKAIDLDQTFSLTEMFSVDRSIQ
blaNDM-1: Metallo-beta-lactamase type 2 (blaNDM-1, Klebsiella pneumoniae, UniProt C7C422)
Chain of UniProt C7C422 (whole entry, looked up): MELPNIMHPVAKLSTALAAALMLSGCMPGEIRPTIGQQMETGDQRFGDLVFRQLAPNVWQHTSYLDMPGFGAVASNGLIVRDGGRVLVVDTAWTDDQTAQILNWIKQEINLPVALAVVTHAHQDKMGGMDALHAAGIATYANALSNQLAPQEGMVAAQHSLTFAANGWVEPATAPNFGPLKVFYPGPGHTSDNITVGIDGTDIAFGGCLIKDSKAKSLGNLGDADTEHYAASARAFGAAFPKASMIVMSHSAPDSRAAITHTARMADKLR
Chain of UniProt Q60492 (whole entry, looked up): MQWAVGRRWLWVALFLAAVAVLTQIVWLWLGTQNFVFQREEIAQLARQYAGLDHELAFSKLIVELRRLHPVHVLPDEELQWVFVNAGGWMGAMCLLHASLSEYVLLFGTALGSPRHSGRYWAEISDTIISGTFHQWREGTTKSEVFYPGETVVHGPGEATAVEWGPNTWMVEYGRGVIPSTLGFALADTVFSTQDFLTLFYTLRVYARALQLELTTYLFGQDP
Chain of UniProt A0A024B7W1 (whole entry, looked up): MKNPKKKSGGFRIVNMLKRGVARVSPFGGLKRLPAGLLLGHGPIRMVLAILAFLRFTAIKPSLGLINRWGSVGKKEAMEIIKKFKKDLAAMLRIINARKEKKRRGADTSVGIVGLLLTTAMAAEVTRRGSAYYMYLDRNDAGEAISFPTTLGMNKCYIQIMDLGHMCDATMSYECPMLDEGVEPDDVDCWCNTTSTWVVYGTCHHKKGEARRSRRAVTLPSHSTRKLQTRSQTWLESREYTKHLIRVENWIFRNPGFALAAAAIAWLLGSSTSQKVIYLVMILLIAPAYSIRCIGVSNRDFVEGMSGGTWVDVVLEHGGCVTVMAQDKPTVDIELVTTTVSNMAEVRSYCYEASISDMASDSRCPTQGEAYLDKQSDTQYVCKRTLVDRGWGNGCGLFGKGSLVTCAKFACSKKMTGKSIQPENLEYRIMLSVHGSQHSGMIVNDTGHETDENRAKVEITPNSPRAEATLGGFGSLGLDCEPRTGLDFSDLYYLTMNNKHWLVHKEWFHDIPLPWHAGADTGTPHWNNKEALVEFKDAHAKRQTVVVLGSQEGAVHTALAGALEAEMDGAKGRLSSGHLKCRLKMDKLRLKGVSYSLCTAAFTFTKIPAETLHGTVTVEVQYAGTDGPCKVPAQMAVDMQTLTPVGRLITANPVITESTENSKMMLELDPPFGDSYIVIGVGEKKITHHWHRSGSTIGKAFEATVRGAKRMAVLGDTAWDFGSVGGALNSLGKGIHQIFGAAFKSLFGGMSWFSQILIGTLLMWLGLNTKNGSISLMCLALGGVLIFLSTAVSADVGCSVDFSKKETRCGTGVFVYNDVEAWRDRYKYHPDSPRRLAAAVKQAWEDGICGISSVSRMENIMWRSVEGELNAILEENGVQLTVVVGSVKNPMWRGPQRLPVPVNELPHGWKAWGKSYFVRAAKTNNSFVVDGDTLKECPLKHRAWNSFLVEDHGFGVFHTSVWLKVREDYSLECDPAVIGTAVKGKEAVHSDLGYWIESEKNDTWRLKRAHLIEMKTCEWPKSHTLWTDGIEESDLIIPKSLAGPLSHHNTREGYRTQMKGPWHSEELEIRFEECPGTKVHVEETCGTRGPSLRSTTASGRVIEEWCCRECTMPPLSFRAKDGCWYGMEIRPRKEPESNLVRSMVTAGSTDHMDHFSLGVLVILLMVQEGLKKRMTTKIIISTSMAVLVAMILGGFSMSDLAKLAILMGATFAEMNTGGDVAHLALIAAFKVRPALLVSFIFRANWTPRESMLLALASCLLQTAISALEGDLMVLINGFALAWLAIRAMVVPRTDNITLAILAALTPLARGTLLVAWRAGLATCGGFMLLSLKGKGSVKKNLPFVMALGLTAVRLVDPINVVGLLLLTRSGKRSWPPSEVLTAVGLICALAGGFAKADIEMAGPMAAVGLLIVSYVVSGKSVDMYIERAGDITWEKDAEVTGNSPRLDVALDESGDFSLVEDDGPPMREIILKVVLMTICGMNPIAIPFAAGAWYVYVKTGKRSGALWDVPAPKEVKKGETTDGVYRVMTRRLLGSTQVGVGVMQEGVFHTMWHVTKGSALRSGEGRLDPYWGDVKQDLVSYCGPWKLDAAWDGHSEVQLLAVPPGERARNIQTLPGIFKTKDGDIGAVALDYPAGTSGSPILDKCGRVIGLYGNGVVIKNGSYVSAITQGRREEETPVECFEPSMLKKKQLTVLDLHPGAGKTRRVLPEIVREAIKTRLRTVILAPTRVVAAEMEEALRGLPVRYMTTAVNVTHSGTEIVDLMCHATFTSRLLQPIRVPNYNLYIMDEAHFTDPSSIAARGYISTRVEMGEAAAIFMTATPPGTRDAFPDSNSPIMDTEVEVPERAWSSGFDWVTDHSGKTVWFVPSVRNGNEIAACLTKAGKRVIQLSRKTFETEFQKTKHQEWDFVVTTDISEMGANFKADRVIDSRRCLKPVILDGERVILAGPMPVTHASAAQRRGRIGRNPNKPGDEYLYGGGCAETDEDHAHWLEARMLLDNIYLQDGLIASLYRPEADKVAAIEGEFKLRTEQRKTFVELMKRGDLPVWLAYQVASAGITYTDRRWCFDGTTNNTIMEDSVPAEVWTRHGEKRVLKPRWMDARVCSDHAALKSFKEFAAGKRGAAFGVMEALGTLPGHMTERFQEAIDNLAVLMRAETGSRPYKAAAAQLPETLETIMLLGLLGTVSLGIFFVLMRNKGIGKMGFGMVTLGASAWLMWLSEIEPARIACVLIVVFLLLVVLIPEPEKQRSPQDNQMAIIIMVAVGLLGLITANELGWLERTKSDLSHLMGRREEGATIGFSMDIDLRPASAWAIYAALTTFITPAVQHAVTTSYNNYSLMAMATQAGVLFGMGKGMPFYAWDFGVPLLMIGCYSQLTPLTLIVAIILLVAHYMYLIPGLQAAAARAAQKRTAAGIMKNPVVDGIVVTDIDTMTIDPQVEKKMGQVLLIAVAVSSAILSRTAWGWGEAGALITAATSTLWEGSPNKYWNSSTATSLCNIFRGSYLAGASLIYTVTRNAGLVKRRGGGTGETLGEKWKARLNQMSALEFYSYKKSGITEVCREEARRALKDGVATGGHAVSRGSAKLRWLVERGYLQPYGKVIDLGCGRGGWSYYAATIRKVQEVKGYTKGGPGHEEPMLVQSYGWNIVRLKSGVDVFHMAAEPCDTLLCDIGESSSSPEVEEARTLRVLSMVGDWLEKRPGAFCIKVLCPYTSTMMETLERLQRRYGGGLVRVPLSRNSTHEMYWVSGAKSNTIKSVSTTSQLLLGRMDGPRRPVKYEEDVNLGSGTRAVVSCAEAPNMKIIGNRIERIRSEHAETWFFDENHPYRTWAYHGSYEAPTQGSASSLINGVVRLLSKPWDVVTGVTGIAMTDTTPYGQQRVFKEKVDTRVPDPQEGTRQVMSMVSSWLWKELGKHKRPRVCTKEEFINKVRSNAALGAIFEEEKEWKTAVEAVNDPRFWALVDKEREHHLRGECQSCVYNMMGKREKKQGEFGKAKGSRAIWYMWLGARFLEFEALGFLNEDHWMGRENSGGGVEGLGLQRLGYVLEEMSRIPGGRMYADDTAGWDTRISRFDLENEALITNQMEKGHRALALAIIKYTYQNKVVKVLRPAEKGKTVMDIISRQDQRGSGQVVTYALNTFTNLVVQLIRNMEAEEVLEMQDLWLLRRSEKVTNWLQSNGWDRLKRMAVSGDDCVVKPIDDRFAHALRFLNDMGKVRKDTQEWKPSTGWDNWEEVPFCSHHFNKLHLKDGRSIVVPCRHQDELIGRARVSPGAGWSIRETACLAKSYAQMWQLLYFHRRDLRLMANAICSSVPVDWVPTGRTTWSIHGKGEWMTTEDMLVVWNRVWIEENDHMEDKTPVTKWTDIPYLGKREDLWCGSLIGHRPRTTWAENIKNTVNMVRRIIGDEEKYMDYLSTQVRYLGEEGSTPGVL
Chain of UniProt Q5U3Y7 (whole entry, looked up): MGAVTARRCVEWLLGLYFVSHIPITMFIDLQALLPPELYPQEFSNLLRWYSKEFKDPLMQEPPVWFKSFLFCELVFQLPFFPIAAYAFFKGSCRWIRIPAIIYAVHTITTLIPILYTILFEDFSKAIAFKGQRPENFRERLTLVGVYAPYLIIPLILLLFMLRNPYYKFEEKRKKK
Chain of UniProt P31652 (whole entry, looked up): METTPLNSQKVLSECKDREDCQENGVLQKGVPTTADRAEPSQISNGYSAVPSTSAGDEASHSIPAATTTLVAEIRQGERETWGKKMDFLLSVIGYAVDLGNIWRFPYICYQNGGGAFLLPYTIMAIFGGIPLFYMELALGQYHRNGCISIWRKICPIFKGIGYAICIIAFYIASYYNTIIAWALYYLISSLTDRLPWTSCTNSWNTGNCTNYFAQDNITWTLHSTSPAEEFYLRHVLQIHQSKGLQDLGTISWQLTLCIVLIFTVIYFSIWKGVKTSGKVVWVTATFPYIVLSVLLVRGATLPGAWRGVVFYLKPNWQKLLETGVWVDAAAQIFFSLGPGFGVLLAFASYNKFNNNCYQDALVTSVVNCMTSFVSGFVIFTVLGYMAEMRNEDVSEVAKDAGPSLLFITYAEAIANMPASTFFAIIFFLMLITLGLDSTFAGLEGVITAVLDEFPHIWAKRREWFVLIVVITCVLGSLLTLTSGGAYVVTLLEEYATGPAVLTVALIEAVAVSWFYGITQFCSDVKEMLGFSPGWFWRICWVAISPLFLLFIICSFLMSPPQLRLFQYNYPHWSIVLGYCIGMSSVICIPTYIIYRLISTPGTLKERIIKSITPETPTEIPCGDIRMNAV

COc1cc2c(cc1O)C(CCc1ccc(Cl)cc1)N(C)CC2 (centres unmarked)  Ki (Sigma non-opioid intracellular receptor 1 (SIGMAR1, Cavia porcellus, UniProt Q60492); cell-free assay, radioligand): 0.37 µM
CC[C@H](C)[C@H](NC(=O)[C@H](CCCNC(=N)N)NC(=O)[C@H](C)NC(=O)[C@H](CCCCN)NC(=O)c1ccccc1N)C(=O)N[C@@H](CO)C(=O)N[C@@H](C)C(=O)N[C@@H](CCC(N)=O)C(=O)NCCNc1ccc([N+](=O)[O-])cc1[N+](=O)[O-]  Ki (MCA2; enzyme activity, competitive inhibitor; Trypanosoma brucei; together with: Z-FR-AMC substrate): 7.8 µM
CC(C)C[C@H]1NC(=O)[C@@H]2CCCN2C(=O)[C@H](C(C)C)NC(=O)[C@@H]2CCCN2C(=O)[C@@H](CS)NC(=O)[C@H](CCCCN)NC(=O)[C@H](CCCCN)NC(=O)[C@H](CC(=O)O)NC1=O  Ki (blaNDM-1; enzyme activity, inhibitor; together with: nitrocefin 1.5 µM): 10.8 µM
CC(C)C[C@H](NC(=O)[C@H](C)NC(=O)[C@H](CCCCN)NC(=O)c1ccccc1N)C(=O)N[C@@H](CO)C(=O)N[C@@H](CO)C(=O)N[C@@H](C)C(=O)N[C@@H](CCC(N)=O)C(=O)NCCNc1ccc([N+](=O)[O-])cc1[N+](=O)[O-]  Ki (MCA2; enzyme activity, competitive inhibitor; Trypanosoma brucei; together with: Z-FR-AMC substrate): 9.4 µM
Cc1cc(O)cc(C)c1C[C@H](N)C(=O)N[C@H](CCCNC(=N)N)C(=O)N[C@@H](Cc1ccccc1)C(=O)N[C@@H](CCCCN)C(=O)N[C@H]1CC[C@H](NC(=O)[C@H](Cc2ccccc2)NC(=O)[C@H](CC2CCCCC2)NC[C@@H]2Cc3ccccc3CN2C(=O)[C@@H](N)Cc2ccc(O)cc2)CC1  Ki (Mu-type opioid receptor (Oprm1, Rattus norvegicus, UniProt P33535); ligand displacement, radioligand; cell membranes): 0.00787 µM
CC1(C)NC(=O)[C@@H](CC(=O)O)NC(=O)[C@H](CCC(=O)O)NC(=O)[C@H](CCCN)NC(=O)[C@H](C(c2ccccc2)c2ccccc2)NC(=O)[C@@H]2CCCN2C(=O)[C@H]2CCCN2C(=O)[C@H](CC(N)=O)NC1=O  Ki (blaNDM-1; enzyme activity, inhibitor; together with: nitrocefin 1.5 µM): 267 µM
OC1Cc2ccccc2CC1N1CCC2(C=Cc3ccc(Br)cc32)CC1 (racemic)  Ki (Sigma intracellular receptor 2 (Tmem97, Rattus norvegicus, UniProt Q5U3Y7); radioligand binding; rat liver; together with: [3H]DTG, 1 µM dextrallorphan mask): 0.35 ± 0.03 µM
COc1cc(OC)cc(B(O)O)c1  Ki (Uncharacterized hydrolase SAUSA300_2518 (Staphylococcus aureus, UniProt Q2FDS6); enzyme activity, inhibitor): 0.137 µM
CC(C)C[C@H](NC(=O)[C@H](CCCCN)NC(=O)[C@H](CCCCN)NC(=O)Cc1cccc(CNC(=O)[C@@H](C)NC(=N)N)c1)C(=O)O  Ki (Genome polyprotein, NS2B-NS3 protease (ZIKV, UniProt A0A024B7W1); inhibitor; Zika virus): 37.1 ± 0.5 µM
CSCC[C@H](NC(=O)[C@H](C)NC(=O)[C@H](CCCCN)NC(=O)c1ccccc1N)C(=O)N[C@@H](CO)C(=O)N[C@@H](CO)C(=O)N[C@@H](C)C(=O)N[C@@H](CCC(N)=O)C(=O)NCCNc1ccc([N+](=O)[O-])cc1[N+](=O)[O-]  Ki (MCA2; enzyme activity, competitive inhibitor; Trypanosoma brucei; together with: Z-FR-AMC substrate): 12.4 µM
Clc1ccc2sc(C3CCNCC3)nc2c1  Ki (Sodium-dependent serotonin transporter (Slc6a4, Rattus norvegicus, UniProt P31652); ligand displacement, radioligand): 0.336 µM

A few entries again:
CC[C@H](C)[C@H](NC(=O)[C@H](CCCNC(=N)N)NC(=O)[C@H](C)NC(=O)[C@H](CCCCN)NC(=O)c1ccccc1N)C(=O)N[C@@H](CO)C(=O)N[C@@H](C)C(=O)N[C@@H](CCC(N)=O)C(=O)NCCNc1ccc([N+](=O)[O-])cc1[N+](=O)[O-]  Ki (MCA2; enzyme activity, competitive inhibitor; Trypanosoma brucei; together with: Z-FR-AMC substrate): 7.8 µM
CC(C)C[C@H]1NC(=O)[C@@H]2CCCN2C(=O)[C@H](C(C)C)NC(=O)[C@@H]2CCCN2C(=O)[C@@H](CS)NC(=O)[C@H](CCCCN)NC(=O)[C@H](CCCCN)NC(=O)[C@H](CC(=O)O)NC1=O  Ki (blaNDM-1; enzyme activity, inhibitor; together with: nitrocefin 1.5 µM): 10.8 µM
